Measured values collected from several papers.
Every numbered part comes from another study and shows a few of its results, in no order. Several values in a cell are separate wells, animals, samples, runs or records.
Chain of UniProt Q8N5S9 (whole entry, looked up): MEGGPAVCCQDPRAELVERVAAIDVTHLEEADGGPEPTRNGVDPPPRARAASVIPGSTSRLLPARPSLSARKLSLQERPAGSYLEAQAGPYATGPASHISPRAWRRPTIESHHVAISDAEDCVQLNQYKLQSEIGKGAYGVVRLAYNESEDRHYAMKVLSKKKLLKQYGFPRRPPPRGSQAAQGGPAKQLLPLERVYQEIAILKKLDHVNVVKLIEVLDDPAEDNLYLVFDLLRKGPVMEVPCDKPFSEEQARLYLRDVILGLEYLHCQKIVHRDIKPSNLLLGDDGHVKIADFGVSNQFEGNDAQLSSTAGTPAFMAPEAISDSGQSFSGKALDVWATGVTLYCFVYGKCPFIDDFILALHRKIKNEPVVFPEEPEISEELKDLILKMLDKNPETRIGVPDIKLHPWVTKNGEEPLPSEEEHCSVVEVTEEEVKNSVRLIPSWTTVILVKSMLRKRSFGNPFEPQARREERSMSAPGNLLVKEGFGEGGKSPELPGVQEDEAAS
Chain of UniProt Q9BZL6 (whole entry, looked up): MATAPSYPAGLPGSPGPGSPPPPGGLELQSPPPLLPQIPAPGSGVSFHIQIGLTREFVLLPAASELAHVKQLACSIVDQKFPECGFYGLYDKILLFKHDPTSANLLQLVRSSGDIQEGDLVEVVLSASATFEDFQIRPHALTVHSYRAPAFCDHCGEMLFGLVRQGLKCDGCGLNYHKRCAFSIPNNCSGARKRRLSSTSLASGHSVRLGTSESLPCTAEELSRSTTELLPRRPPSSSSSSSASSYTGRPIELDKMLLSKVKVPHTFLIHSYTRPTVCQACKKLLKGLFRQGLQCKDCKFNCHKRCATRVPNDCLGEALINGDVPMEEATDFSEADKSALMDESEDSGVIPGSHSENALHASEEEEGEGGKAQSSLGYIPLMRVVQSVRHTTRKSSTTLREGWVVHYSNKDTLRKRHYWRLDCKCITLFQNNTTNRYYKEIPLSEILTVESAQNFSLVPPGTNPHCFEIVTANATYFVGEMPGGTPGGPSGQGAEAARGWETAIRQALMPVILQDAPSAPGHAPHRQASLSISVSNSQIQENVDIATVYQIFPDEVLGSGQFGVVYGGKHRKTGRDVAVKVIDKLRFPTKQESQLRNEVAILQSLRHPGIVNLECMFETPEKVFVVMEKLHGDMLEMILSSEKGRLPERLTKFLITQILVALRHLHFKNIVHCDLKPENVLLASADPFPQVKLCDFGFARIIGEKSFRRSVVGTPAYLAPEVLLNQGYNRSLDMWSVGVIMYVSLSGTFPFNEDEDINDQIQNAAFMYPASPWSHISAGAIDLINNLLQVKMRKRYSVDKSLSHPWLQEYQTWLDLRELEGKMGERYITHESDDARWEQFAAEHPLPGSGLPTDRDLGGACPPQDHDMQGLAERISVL
Chain of UniProt P32298 (whole entry, looked up): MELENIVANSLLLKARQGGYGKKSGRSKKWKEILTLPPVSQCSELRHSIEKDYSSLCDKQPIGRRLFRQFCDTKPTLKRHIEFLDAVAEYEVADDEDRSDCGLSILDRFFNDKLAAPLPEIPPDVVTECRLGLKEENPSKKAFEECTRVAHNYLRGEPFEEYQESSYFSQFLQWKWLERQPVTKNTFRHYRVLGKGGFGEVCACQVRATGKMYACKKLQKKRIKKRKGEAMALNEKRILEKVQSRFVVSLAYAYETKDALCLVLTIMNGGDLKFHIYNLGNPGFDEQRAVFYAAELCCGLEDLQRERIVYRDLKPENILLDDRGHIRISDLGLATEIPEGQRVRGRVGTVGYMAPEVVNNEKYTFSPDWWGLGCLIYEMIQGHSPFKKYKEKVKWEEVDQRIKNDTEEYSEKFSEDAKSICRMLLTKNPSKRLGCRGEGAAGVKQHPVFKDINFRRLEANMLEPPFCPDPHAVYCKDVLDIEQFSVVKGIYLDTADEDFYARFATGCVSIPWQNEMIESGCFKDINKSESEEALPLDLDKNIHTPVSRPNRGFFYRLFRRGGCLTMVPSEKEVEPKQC
Chain of UniProt P49137 (whole entry, looked up): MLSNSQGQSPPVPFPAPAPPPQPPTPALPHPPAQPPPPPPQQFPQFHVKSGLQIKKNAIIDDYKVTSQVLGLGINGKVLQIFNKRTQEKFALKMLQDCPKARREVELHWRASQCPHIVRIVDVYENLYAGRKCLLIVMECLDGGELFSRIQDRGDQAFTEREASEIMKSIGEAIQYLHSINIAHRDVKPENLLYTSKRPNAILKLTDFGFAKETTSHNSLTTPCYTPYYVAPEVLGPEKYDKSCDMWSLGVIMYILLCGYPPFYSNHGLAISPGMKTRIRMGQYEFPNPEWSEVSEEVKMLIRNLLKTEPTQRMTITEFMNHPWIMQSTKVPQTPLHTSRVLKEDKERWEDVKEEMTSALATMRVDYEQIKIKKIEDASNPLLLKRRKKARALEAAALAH
Chain of UniProt P23443 (whole entry, looked up): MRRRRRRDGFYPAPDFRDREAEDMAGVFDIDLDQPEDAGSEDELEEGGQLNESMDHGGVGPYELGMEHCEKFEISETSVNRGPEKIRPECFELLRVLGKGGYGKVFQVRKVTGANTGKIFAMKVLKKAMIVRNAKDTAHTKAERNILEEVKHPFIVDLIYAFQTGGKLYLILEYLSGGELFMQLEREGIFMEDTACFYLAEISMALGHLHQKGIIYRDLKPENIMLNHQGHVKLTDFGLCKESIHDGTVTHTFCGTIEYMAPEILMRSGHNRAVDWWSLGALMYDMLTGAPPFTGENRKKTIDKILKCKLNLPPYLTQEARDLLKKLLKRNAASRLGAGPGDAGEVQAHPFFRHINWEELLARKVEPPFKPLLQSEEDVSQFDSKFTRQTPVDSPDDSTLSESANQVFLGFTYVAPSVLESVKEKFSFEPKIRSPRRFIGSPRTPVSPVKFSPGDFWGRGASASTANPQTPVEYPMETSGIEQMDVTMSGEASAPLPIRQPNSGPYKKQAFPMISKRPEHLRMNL

Series 1
Target: DDB1- and CUL4-associated factor 1 (DCAF1, Homo sapiens, UniProt Q9Y4B6)
Chain of UniProt Q9Y4B6 (whole entry, looked up): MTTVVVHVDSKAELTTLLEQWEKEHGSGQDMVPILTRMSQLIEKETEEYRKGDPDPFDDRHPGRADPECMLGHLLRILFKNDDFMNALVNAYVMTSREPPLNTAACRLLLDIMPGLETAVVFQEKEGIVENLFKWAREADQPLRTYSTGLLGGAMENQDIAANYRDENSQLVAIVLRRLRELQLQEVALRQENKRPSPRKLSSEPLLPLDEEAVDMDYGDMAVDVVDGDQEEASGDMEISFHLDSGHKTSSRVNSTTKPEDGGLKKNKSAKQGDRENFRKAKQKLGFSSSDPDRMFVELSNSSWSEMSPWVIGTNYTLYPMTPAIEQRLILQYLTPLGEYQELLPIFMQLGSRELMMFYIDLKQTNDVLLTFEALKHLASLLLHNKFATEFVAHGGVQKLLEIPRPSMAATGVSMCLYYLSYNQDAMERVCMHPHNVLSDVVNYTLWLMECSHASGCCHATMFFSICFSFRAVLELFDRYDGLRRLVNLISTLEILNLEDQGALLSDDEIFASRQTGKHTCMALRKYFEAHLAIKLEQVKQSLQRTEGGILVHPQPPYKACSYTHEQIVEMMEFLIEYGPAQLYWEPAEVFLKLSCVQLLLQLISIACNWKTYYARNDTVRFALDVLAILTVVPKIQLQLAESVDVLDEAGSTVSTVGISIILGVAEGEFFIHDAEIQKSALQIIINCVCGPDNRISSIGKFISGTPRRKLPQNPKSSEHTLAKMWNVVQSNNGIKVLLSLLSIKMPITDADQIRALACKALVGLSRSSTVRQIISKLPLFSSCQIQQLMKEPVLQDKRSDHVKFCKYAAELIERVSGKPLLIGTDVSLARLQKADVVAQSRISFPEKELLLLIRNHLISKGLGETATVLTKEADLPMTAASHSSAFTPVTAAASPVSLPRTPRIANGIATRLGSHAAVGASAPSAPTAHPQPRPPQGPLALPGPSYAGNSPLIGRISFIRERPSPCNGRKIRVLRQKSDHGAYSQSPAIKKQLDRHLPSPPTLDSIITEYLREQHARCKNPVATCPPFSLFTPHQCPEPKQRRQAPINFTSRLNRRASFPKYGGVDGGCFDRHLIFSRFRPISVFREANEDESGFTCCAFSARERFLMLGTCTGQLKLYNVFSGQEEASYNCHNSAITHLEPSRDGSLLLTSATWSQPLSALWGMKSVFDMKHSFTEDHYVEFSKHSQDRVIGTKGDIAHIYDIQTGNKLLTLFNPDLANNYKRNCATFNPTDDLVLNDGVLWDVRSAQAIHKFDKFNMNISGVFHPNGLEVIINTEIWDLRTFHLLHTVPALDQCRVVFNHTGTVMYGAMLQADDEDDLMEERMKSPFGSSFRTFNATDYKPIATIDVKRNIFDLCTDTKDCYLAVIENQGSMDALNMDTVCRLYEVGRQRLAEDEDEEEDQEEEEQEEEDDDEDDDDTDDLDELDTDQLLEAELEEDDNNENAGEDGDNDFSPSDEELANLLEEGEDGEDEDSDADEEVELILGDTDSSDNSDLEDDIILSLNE
Method: differential scanning fluorimetry
Tested at: concentration not given
Setting: unit not given
Reference: DCAF1 alone
Endpoint: ΔTm
C[C@@H]1CN(c2ccc(-c3cc(C(=O)NCCOCCOCCOCCOCCNC(=O)/C=C/c4[nH]cc(C(=O)N[C@@H](CC(N)=O)c5ccc(F)c(Cl)c5)c4-c4ccc(Cl)cc4F)ccc3F)cc2NC(=O)c2c[nH]c(=O)cc2C(F)(F)F)C[C@H](C)N1C: 7.56 and 7.47 and 7.37 and 7.42 and 7.29 and 7.15 and 8.36 and 7.48
C[C@@H]1CN(c2ccc(-c3cc(C(=O)NCCCNC(=O)/C=C/c4[nH]cc(C(=O)N[C@@H](CC(N)=O)c5ccc(F)c(Cl)c5)c4-c4ccc(Cl)cc4F)ccc3F)cc2NC(=O)c2c[nH]c(=O)cc2C(F)(F)F)C[C@H](C)N1C: 11.9 and 11.6 and 12 and 11.4 and 11.7 and 12.1
C[C@@H]1CN(c2ccc(-c3cc(C(=O)NCCOCCOCCOCCOCCNC(=O)Cn4cc(-c5[nH]cc(C(=O)N[C@@H](CC(N)=O)c6ccc(F)c(Cl)c6)c5-c5ccc(Cl)cc5F)cn4)ccc3F)cc2NC(=O)c2c[nH]c(=O)cc2C(F)(F)F)C[C@H](C)N1C: 8.03 and 7.89 and 8.37 and 7.52 and 7.82 and 8.43 and 8.51 and 7.68

Series 2
Target: Calcium/calmodulin-dependent protein kinase type II subunit alpha (CAMK2A, Homo sapiens, UniProt Q9UQM7)
Chain of UniProt Q9UQM7 (whole entry, looked up): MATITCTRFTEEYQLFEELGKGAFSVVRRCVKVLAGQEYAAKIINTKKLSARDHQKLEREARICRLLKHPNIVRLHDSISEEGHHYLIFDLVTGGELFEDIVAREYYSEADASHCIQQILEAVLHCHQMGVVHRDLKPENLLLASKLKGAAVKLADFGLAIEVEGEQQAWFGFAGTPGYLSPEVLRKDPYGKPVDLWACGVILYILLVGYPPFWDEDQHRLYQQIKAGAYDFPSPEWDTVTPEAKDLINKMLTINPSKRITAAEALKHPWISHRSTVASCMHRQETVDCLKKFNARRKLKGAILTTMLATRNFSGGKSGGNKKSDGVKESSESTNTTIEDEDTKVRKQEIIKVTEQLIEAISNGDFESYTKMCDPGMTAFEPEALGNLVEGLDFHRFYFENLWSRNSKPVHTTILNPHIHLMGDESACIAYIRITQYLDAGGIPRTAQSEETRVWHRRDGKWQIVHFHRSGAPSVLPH
Read-out: enzyme activity
Action: inhibitor
Tested at: 10 µM
Endpoint: inhibition
CCC[S+]([O-])c1ccc2[nH]c(NC(=O)OC)nc2c1 (centres unmarked): -7%
CNC(=O)c1ccccc1Sc1ccc2c(/C=C/c3ccccn3)n[nH]c2c1: -3%
CO/N=C(\C(=O)N[C@@H]1C(=O)N2C(C(=O)O)=C(C[N+]3(C)CCCC3)CS[C@H]12)c1csc(N)n1: -9%
NC(=O)c1cnccn1: -9%
CC(=O)NO: 1%
O=C(O)CCc1c[nH]c2ccccc12: 28%
Cc1ccc(C=O)s1: -8%
CC1=C(CC[C@H](C)CO[C@@H]2O[C@H](CO)[C@@H](O)[C@H](O)[C@H]2O)O[C@H]2C[C@H]3[C@@H]4CC[C@@H]5C[C@@H](O[C@@H]6O[C@H](CO)[C@H](O)[C@H](O)[C@H]6O[C@@H]6O[C@H](CO)[C@@H](O)[C@H](O)[C@H]6O)CC[C@]5(C)[C@H]4CC[C@]3(C)[C@@H]12: -21%

Series 3
Structure (SMILES): CN(C(=O)c1ccccc1)c1cc(N(C)c2ccc3c(c2)CCc2ccc(C(=O)NCCN4CCOCC4)cc2C3=O)ccc1F
Read-out: cell-free assay
Method: competition with immobilised ligand
Tested at: 1 µM
Endpoint: remaining binding
EPHA3 (Homo sapiens, UniProt P29320): 85%
Ribosomal protein S6 kinase alpha-5, N-terminal kinase domain (RPS6KA5, Homo sapiens, UniProt O75582): 99%
GRK4 (Homo sapiens, UniProt P32298): 100%
PRKD2 (Homo sapiens, UniProt Q9BZL6): 84%
NEK9 (Homo sapiens, UniProt Q8TD19): 95%
RPS6KB1 (Homo sapiens, UniProt P23443): 77%
CAMKK1 (Homo sapiens, UniProt Q8N5S9): 99%
MAST1 (Homo sapiens, UniProt Q9Y2H9): 100%

Single results of other studies
COc1ccc2c(c[n+](C)c3c4cc5c(cc4ccc23)OCO5)c1OC — remaining activity (MAP kinase-activated protein kinase 2 (MAPKAPK2, Homo sapiens, UniProt P49137); enzyme activity, inhibitor; 0.5 µM; reference: control): 103%

A few entries again (series 3):
PRKD2 (Homo sapiens, UniProt Q9BZL6): 84%
RPS6KB1 (Homo sapiens, UniProt P23443): 77%
EPHA3 (Homo sapiens, UniProt P29320): 85%
